Experimental data pooled from the literature.
Lines come from different studies, so protocols differ. Several values in a cell are separate wells, animals, samples, runs or records. Numbers after ± are the reported error.

Compound	test	test system	setting	endpoint	value
NS(=O)(=O)c1ccc(N2N=C(C(F)(F)F)CC2c2ccc(F)cc2F)cc1 (stereo not shown)	general toxicity	beagle dog	oral, multiple doses, once daily	NOAEL	1 mg/kg/day
O=C([O][Ti+2][O]C(=O)c1ccc(P(c2ccccc2)c2ccccc2)cc1)c1ccc(P(c2ccccc2)c2ccccc2)cc1.[Cl][Au].[Cl][Au].c1cc[cH-]c1.c1cc[cH-]c1		C57BL/6 mice	7 days	MTD	10 mg/kg/day
CC(C)C1=C(O)C(=O)C2=C(C=C[C@H]3C(C)(C)CCC[C@]23C)C1=O		Artemia salina, artificial seawater	100 ppm, 24 h	mortality	36.6%
CC(C)(O)c1ccccc1CC[C@H](c1cccc(/C=C/c2ccc3ccc(Cl)cc3n2)c1)S(=O)(=O)CC1(CC(=O)O)CC1		human liver microsomes	1 µM, 30 min, 0.5 mg/mL protein	percent metabolized	72.1%
CC(C)C[C@H](NC(=O)[C@H](CCCCN)NC(=O)[C@H](CCC(=O)O)NC(=O)[C@H](C)NC(=O)[C@@H](NC(=O)[C@H](CCCCN)NC(=O)[C@H](CC(=O)O)NC(=O)[C@H](Cc1ccc(O)cc1)NC(=O)[C@H](Cc1ccccc1)NC(=O)[C@H](C)NC(=O)[C@H](CCCCN)NC(=O)[C@H](CC(C)C)NC(=O)[C@H](Cc1c[nH]c2ccccc12)NC(=O)[C@@H](N)CC(=O)O)C(C)C)C(=O)N[C@@H](CCCCN)C(=O)N[C@@H](CCC(=O)O)C(=O)N[C@@H](C)C(=O)N[C@@H](Cc1ccccc1)C(=O)N1CCC[C@H]1C(=O)N[C@@H](CC(=O)O)C(=O)N[C@@H](Cc1c[nH]c2ccccc12)C(=O)N[C@@H](C)C(=O)N[C@@H](CCCCN)C(=O)N[C@@H](C)C(=O)N[C@@H](C)C(=O)N[C@@H](Cc1ccc(O)cc1)C(=O)N[C@@H](CC(=O)O)C(=O)N[C@@H](CCCCN)C(=O)N[C@@H](C)C(=O)N[C@@H](C)C(=O)N[C@@H](CCC(=O)O)C(=O)N[C@@H](CCCCN)C(=O)N[C@@H](C)C(=O)N[C@@H](CCCCN)C(=O)N[C@@H](CCC(=O)O)C(=O)N[C@@H](C)C(=O)N[C@@H](C)C(=O)O		cynomolgus monkey female, plasma	intravenous infusion, 75 mg/kg, day 1, 30 min infusion	clearance	0.117 mL/min/kg
CC(COC(=O)c1ccccc1)OC(=O)C(N)C(C)C (mixture of isomers)			pH 6 or lower	half-life	> 30 h
C[C@]12CC[C@H](O)CC1CCC1C2[C@H](O)C(=O)[C@]2(C)[C@@H](c3ccc(=O)oc3)CC[C@]12O (stereo partly shown)	sulfation, substrate	rabbit liver cytosol	pH 7.4	CLint	1.27 µL/min/mg
CCCCCCCC(=O)NCCCC[C@H](NC(=O)[C@H](Cc1ccccc1)NC(=O)[C@@H](CCCNC(=N)N)NC(=O)[C@@H](N)Cc1ccc(O)cc1)C(N)=O		mouse, CD-1, male, brain	intravenous, 3 mg/kg	AUC(0-inf)	105000 ng·min/g
COc1ccc2sc3c(c2c1)SCCNC3=O		mouse	oral, 25 mg/kg	oral bioavailability	1.7%
COC(=O)C[C@](O)(CCCC(C)(C)OC(C)=O)C(=O)O[C@@H]1C(OC)=C[C@]23CCCN2CCc2cc4c(cc2[C@H]13)OCO4		CD1 mouse, pancreas	oral, 1 mg/kg, 24 h, below quantification limit 1.00 ng/mL	tissue concentration	not detected
CC(C)[C@H](NC(=O)CNC(=O)[C@H](CCC(N)=O)NC(=O)[C@H](C)N)C(=O)O	severe intensity	human	30 mg/kg, 3 days, thrice daily dosing	subjects with adverse events	0%
CC[C@H](C)C(=O)N1CCC(NC(=O)Nc2ccc(OC(F)(F)F)c(F)c2)CC1		healthy volunteers	oral, 8 mg single dose, ventricular extrasystoles	subjects with extrasystoles TEAE	0%
CC(C)C[C@H](NC=O)C(=O)N[C@@H](C)C(=O)N[C@@H](C)C(=O)N[C@@H](CC(=O)O)C(=O)N[C@@H](CC(C)C)C(=O)N[C@@H](CC(C)C)C(=O)N[C@@H](C)C(=O)N[C@@H](C)C(=O)N[C@@H](CC(C)C)C(=O)NCC(=O)N[C@@H](CC(=O)O)C(=O)N[C@@H](CC(C)C)C(=O)N[C@@H](C)C(=O)N[C@@H](CCCCN)C(=O)N[C@@H](Cc1c[nH]c2ccccc12)C(=O)N[C@@H](CC(C)C)C(=O)N[C@@H](CC(C)C)C(=O)N[C@@H](CC(=O)O)C(=O)N[C@@H](C)C(=O)N[C@@H](CC(C)C)C(=O)N[C@@H](C)C(=O)N[C@@H](CCCCN)C(=O)N[C@@H](C)C(=O)N[C@@H](C)C(=O)N[C@@H](CCCCN)C(=O)N[C@@H](CCCCN)C(=O)O (racemic)	circular dichroism	phosphate buffer 10 mM	1 to 5 µM, pH 7.5, approximate	helicity	54%
[2H]C([2H])([2H])C([2H])([2H])C([2H])([2H])OC(C(=O)OC1CCNCC1)(c1ccccc1)c1ccccc1		healthy Japanese male subjects, plasma	oral, 18 mg once daily, day 1, fed, mean	Cmax	34.3 ng/mL
[3H]c1sc(C)nc1C=C(C)C1CC2C(CCCC(C)C(O)C(C)C(=O)C(C)(C)C(O)CC(=O)O1)N2CCO (stereo not shown)	LC-MS/MS	CD2F1 mice tumour-bearing, kidney	intravenous, 2.2 nmol/kg, 2 h	tissue concentration	3360 ± 90 ng/g
CCCCCCCCCCCCC(=O)O.O=C1CCCC2C3CCCN4CCCC(CN12)C34 (stereo not shown)	electrical conductivity	water	298.15 K	standard enthalpy of aggregation	-0.681 kcal/mol
C#Cc1c(F)ccc2cc(O)cc(-c3ncc4c(N5CC6CCC(C5)N6C(=O)CC(C)CC(=O)OCC)nc(OC[C@@]56CCCN5C[C@H](F)C6)nc4c3F)c12 (stereo partly shown)		mouse whole blood	60 min	parent drug release	not detected
CN(C)C(CNC(=O)Nc1cc(C(F)(F)F)ccc1N1CCOCC1)c1ccncc1 (stereo not shown)		mouse, serum	intraperitoneal, 360 mg/kg single dose	serum glucose	259 mg/dL
Nc1ccc(-c2ccccc2)cc1OC(=O)NC1CCCCC1		rat liver S9 fraction	together with: NADPH-regenerating system	log hydrolysis rate constant	-1.34
CSCC[C@@H]1NC(=O)[C@@H]2CSSC[C@H](NC(=O)[C@H](CO)NC(=O)[C@H](C)N)C(=O)N[C@@H](CCCNC(=N)N)C(=O)N[C@@H]([C@@H](C)O)C(=O)N3CCC[C@H]3C(=O)N[C@@H](CCCCN)C(=O)N[C@@H](CC(=O)O)C(=O)N[C@H]3CSSC[C@H](NC(=O)[C@H](CCCCN)NC(=O)[C@H](CCCNC(=N)N)NC(=O)[C@H](CC(N)=O)NC1=O)C(=O)N[C@@H](CCCCN)C(=O)N[C@H]1CSSC[C@H](NC(=O)[C@@H]4CCCN4C(=O)[C@H](CC(=O)O)NC(=O)[C@H](C)NC3=O)C(=O)N[C@@H](C)C(=O)N[C@@H](CCCCN)C(=O)N[C@@H](CCC(=O)O)C(=O)N[C@@H]([C@@H](C)O)C(=O)NCC(=O)N[C@@H](CSSC[C@@H](C(N)=O)NC(=O)[C@H](CCCNC(=N)N)NC(=O)[C@H](CC(N)=O)NC1=O)C(=O)N1CCC[C@H]1C(=O)N[C@@H](Cc1ccc(O)cc1)C(=O)NCC(=O)N[C@@H](CCCCN)C(=O)N2		DA rat, pristane-induced arthritis, serum	subcutaneous, 0.1 mg/kg once weekly, end of 21-day trial	AST	86.4 U/L
Cc1cc([C@H](C(=O)N2C[C@H](O)C[C@H]2C(=O)N[C@@H](CC(=O)N2CCC(N3CCC(C#Cc4ccc(C(=O)N[C@H]5C(C)(C)[C@H](Oc6ccc(C#N)c(Cl)c6)C5(C)C)cc4)CC3)CC2)c2ccc(-c3scnc3C)cc2)C(C)C)on1		mouse MDA-MB-453 xenograft	dose not given, whole efficacy study	toxicity	not toxic
COc1cc(NC(=O)C(=O)c2c(C)n(Cc3ccc(Cl)cc3)c3ccc(C)cc23)ccn1		cynomolgus monkey, male, plasma	oral, 10 mg/kg	t1/2	11.2 h and 14.4 h and 16.6 h and 27.1 h and 16.5 h and 18.3 h

Excerpt of the above:
Compound	test	test system	setting	endpoint	value
CCCCCCCC(=O)NCCCC[C@H](NC(=O)[C@H](Cc1ccccc1)NC(=O)[C@@H](CCCNC(=N)N)NC(=O)[C@@H](N)Cc1ccc(O)cc1)C(N)=O		mouse, CD-1, male, brain	intravenous, 3 mg/kg	AUC(0-inf)	105000 ng·min/g
COc1ccc2sc3c(c2c1)SCCNC3=O		mouse	oral, 25 mg/kg	oral bioavailability	1.7%
COC(=O)C[C@](O)(CCCC(C)(C)OC(C)=O)C(=O)O[C@@H]1C(OC)=C[C@]23CCCN2CCc2cc4c(cc2[C@H]13)OCO4		CD1 mouse, pancreas	oral, 1 mg/kg, 24 h, below quantification limit 1.00 ng/mL	tissue concentration	not detected
